Experimental data collected from several papers.
Lines come from different studies, so protocols differ. Numbers after ± are the reported error.

With `CC1=C(/C=C/C(=O)N2CCN(C(N)=O)CC2)C(C)(C)CCC1` the Cmax was 94.2 nmol/g (male mice, retina; oral, 120 mg/kg).
`CC(C)(Sc1cc[n+]([O-])cc1-c1ccc(C#N)c2ccccc12)C(=O)OC1OC(C(=O)O)C(O)C(O)C1O` (stereo not shown) gave a Cmax of 37.2 ng/mL (plasma; oral, 15 mg, mild renal impairment, fasted).
With `N=C(N)NCCC[C@@H]1NC(=O)[C@H](Cc2c[nH]c3ccccc23)NC(=O)[C@@H](CC2CCCCC2)NC(=O)[C@@H]2CCCN2C(=O)[C@@H](NC(=O)CCc2ccccc2)CCCNC1=O` the Cmax was 220 ng/g (C57BL/6J mice, spinal cord; intraperitoneal, 1 mg/kg).
`N#Cc1cnc2cc(OCC3CCNCC3)c(F)cc2c1Nc1cc(F)c(OCc2cccc(Cl)n2)cc1Cl` gave a Cmax of 256 ng/mL (male Sprague-Dawley rat, plasma; oral, 30 mg/kg).
`Cc1ccc(OCC(=O)N(Cc2cccs2)c2ccn[nH]2)cc1` gave a Cmax of 900 ng/mL (male Sprague-Dawley rat, plasma; intravenous, 1 mg/kg, single dose).
`C[Si]1(C[C@H](CN)CC(=O)O)CCCC1` has a Cmax of 39.6 µM (male Sprague-Dawley rat, plasma; oral, 30 mg/kg, single dose).
With `O=C(O)/C=C/c1cccc(S(=O)(=O)Nc2ccccc2)c1` the Cmax was 2240 ng/mL (patients with severe liver dysfunction, plasma; intravenous, 400 mg/m^2 belinostat, single 30 min infusion, cycle 1 day -7, mean).
`CC(C)(C)ONc1nc(Nc2ccnc(C(F)(F)F)c2)nc(-c2cccc(C(F)(F)F)n2)n1` has a Cmax of 2280 ng/mL (female Balb/cA nude mice xenograft, plasma; oral, 18.05 mg/kg).
`CN1CCN(c2cc(-c3ccccc3CO)c(N(C)C(=O)C(C)(C)c3cc(C(F)(F)F)cc(C(F)(F)F)c3)cn2)CC1` has a Cmax of 60.1 ng/mL (healthy volunteers, plasma; oral, dose not given, netupitant-palonosetron fixed-dose combination).
The Cmax of `CCc1c2c(nc3ccc(O)cc13)-c1cc3c(c(=O)n1C2)COC(=O)[C@]3(O)CC` is reported as 227 ng/mL (human patients, plasma; intravenous, 75 mg/m^2 of parent drug).
The Cmax of `Cn1c(=O)oc2ccc(-c3ccc(CC(C#N)NC(=O)C4CNCCCO4)c(F)c3)cc21` (stereo not shown) is reported as 161 ng/mL (human, plasma; 20 mg once daily, day 28, geometric mean).
The Cmax of `CSCOC1C(=O)C2(C)C(OCSC)CC3OCC3(OC(C)=O)C2C(OC(=O)c2ccccc2)C2(O)CC(OC(=O)C(O)C(C=C(C)C)NC(=O)OC(C)(C)C)C(C)=C1C2(C)C` (stereo not shown) is reported as 67.6 ng/mL (female Sprague-Dawley rat, plasma; intravenous, 1 mg/kg).
The Cmax of `CCc1cc(Nc2nc(-c3ccc(-n4cnc(C)c4)c(F)c3)cs2)c(C)cc1C` is reported as 484 ng/mL (human, both sexes, plasma; oral, 200 mg once daily, day 14, multiple dose, geometric mean).
With `Cc1ccc(OCC(=O)O)cc1` the Cmax was 2450 ± 274 ng/mL (Sprague-Dawley rat Crl:CD(SD), male, plasma; oral, 30 mg/kg/day of parent drug, day 90, 90-day repeated dosing).
`C[Si](C)(C)C[C@H](CN)CC(=O)O` gave a Cmax of 125 µM (male Sprague-Dawley rat, plasma; oral, 30 mg/kg, single dose).
For `COc1cc(C)c(Cc2ccc(O)cc2)cc1[C@@H]1S[C@H](CO)[C@@H](O)[C@H](O)[C@H]1O`, the Cmax was 0.726 ± 0.136 ng/mL (Japanese T2DM patients, plasma; 0.5 mg luseogliflozin, day 1, once daily).

For quick reference, copied from above:
The Cmax of `CSCOC1C(=O)C2(C)C(OCSC)CC3OCC3(OC(C)=O)C2C(OC(=O)c2ccccc2)C2(O)CC(OC(=O)C(O)C(C=C(C)C)NC(=O)OC(C)(C)C)C(C)=C1C2(C)C` (stereo not shown) is reported as 67.6 ng/mL (female Sprague-Dawley rat, plasma; intravenous, 1 mg/kg).
